Assay results of several laboratories.
Lines come from different studies, so protocols differ. ± gives the spread as reported.
USP5: Ubiquitin carboxyl-terminal hydrolase 5 (USP5, Homo sapiens, UniProt P45974)
Chain of UniProt P45974 (whole entry, looked up): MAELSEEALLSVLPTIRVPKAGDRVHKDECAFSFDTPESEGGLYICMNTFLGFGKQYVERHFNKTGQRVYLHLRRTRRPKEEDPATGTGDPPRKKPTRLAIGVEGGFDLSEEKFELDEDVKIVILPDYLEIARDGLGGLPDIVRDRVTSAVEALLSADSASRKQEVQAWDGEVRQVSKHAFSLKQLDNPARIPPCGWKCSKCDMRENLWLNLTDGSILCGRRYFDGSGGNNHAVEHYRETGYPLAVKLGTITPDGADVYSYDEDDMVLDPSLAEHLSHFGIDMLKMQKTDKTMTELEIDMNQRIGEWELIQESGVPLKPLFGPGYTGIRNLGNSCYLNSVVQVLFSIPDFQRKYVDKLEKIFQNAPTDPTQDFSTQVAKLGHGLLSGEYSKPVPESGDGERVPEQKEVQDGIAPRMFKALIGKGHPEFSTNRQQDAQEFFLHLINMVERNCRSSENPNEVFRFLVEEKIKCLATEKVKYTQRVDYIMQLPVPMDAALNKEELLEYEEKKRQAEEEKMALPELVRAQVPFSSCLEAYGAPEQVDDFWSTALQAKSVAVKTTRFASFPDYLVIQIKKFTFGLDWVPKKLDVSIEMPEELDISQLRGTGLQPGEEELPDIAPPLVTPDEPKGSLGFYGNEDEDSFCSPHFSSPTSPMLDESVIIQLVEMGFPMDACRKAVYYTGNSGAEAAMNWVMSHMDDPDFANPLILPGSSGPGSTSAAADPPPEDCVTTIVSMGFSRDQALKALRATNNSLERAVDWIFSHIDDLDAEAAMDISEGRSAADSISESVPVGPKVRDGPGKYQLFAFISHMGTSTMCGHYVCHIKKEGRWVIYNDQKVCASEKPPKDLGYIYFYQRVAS
tmk: Thymidylate kinase (tmk, Mycobacterium tuberculosis, UniProt P9WKE1)
Chain of UniProt P9WKE1 (whole entry, looked up): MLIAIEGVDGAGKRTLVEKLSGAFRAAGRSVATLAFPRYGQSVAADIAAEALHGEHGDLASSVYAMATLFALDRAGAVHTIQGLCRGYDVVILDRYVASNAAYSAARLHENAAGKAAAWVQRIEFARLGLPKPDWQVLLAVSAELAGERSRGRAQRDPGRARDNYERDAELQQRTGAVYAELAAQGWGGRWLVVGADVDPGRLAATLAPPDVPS
Chain of UniProt P15273 (whole entry, looked up): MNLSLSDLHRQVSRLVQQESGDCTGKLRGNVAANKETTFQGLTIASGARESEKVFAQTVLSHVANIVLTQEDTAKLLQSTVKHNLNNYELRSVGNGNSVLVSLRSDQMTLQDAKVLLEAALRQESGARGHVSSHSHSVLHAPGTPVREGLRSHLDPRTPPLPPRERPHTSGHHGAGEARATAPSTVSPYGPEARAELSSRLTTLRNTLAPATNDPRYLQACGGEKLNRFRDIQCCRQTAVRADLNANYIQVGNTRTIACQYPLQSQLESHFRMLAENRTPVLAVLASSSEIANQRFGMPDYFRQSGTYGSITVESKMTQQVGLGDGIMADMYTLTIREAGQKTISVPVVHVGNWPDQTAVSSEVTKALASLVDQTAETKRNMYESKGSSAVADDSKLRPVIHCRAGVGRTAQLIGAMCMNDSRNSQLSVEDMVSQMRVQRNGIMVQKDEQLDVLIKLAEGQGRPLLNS
Chain of UniProt P32245 (whole entry, looked up): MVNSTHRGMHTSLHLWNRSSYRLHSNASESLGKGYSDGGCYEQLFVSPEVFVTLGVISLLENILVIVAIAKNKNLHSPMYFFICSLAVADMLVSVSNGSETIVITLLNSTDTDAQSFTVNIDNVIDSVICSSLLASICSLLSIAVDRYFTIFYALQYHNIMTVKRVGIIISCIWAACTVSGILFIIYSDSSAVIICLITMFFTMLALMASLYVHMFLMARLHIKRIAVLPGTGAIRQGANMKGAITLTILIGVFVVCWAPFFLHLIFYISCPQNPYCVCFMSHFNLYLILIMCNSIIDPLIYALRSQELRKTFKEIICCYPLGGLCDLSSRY

Structure (SMILES)	tested on	test	test system	conditions	quantity	value
CN1C(=O)C(=Cc2ccc(I)o2)C(=O)NC1=S	USP5	enzyme activity, inhibitor		17 µM	inhibition	34%
Cc1sc2c(c1C)C(c1ccc(Cl)cc1)=NC(CC(=O)OC(C)(C)C)c1nnc(C)n1-2 (stereo not shown)	MC4R (Homo sapiens, UniProt P32245)	ligand displacement, radioligand		1 µM	inhibition	0%
CCOc1cc(C=C2C(=O)NC(=O)NC2=O)cc(Cl)c1O	USP5	enzyme activity, inhibitor		17 µM	inhibition	34%
O=C1NC2(CC2)COc2ncc(F)cc2[C@H]2COCCN2c2ccn3ncc1c3n2			Sprague-Dawley rat, male, testes	oral, 5 mg/kg/day, 4 weeks, end of treatment	organ-to-body weight ratio	0.757 ± 0.061%
CCOC(=O)C1=C(C)NC(=NN=C2C(=O)Nc3ccc(C)cc32)NC1c1ccc(F)cc1 (stereo not shown)	tmk	enzyme activity, inhibitor, absorbance		0.01 µg/mL	inhibition	38.3%
O=C(NC1CCN(c2ncnc3[nH]cnc23)CC1)c1cccc(NS(=O)(=O)c2ccc(C(F)(F)F)cc2)c1	Replicase polyprotein 1ab, nsp14 (rep, Human coronavirus 229E, UniProt P0C6X1)	enzyme activity		200 µM	inhibition	96.6%
Cc1cn(C2CC(O)C(COP(=O)(O)O)O2)c(=O)[nH]c1=O (stereo not shown)	tmk	enzyme activity, inhibitor, absorbance		0.01 µg/mL	inhibition	41.8%
O=C(Nc1ccc(C(F)F)cc1)[C@H](CC1CCCCC1)Nc1nn2c(=O)ccnc2s1	Tyrosine-protein phosphatase YopH (Yersinia enterocolitica, UniProt P15273)	enzyme activity, inhibitor		10 µM	inhibition	2%
CCOC(=O)C1=C(C)NC(=NN=C2C(=O)Nc3ccccc32)NC1c1ccc(F)cc1 (stereo not shown)	tmk	enzyme activity, inhibitor, absorbance		1 µg/mL	inhibition	55.6%
O=C1NC(=S)NC(=O)C1=C/C=C/c1ccco1	USP5	enzyme activity, inhibitor		17 µM	inhibition	45%

A few entries again:
Structure (SMILES)	tested on	test	test system	conditions	quantity	value
Cc1cn(C2CC(O)C(COP(=O)(O)O)O2)c(=O)[nH]c1=O (stereo not shown)	tmk	enzyme activity, inhibitor, absorbance		0.01 µg/mL	inhibition	41.8%
